Measurements gathered from unrelated publications.
Each numbered part is a random draw from the data of one study; scales do not carry over between parts. Substitutions count along the parent as printed.

Block 1 — technique: RNA Bind-n-Seq; molecule type: RNA; matrix: in vitro; concentration: not given; relative to: input RNA pool; direction: higher = stronger binding
Target: RING finger protein unkempt homolog, zinc fingers 1-6, GST-SBP tag (UNK, Homo sapiens, UniProt Q9C0B0, residues 30-357)
UniProt Q9C0B0, sequence (30-357, looked up): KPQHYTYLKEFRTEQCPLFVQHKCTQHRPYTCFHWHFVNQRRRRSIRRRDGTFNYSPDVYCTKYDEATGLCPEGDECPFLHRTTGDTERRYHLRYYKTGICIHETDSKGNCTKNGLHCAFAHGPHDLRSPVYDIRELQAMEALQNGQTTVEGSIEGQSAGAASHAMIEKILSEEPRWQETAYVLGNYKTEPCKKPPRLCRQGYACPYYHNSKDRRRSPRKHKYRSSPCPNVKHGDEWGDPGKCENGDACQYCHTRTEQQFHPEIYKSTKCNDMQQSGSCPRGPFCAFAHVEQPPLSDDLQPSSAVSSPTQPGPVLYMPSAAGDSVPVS
Notes: RNA with constant flanks, human-mouse chimeric sites, ends assumed
All sequences stand within: GGGAGUUCUACAGUCCGACGAUC … CAACAGAGGAUUGAGCAUCA
Oligonucleotide | bound/input enrichment [ratio]
AUGGAGAAGGAUUCUCUGCCCCGCUUUGUGCGCUCUGAGUUUUAUCAGGAGCUAAUCAAGUAGUCAUCUGGUCAGGCUUCCAAAAGUUGCCCUGUGAGUUGAGUUACAUAAUAACCCGCA | 0.153
GACUUGGGACCGUCCUGGGCUAGUACAAUAGCGGCAGGUGGAGGCUCGAGAGGAAAGUUUGUUAGUGGAGGCAGUGGUAGAGGCCGUCAUGUACGGUCCUUUACUCGAUAGAUGUGUUCU | 0.243
UUUCUAUUGCAGCAAACGAUGCUAAGAAUUAAGGAUCCUAAGAAGUCACUGGAUUUUUAUACGAGGGUUCUUGGACUGACCCUCCUGCAGAAGCUUGACUUCCCUGCUAUGAAGUUCUCG | 0.181
GCUCCUCCCCGCUCUGCAGCCUGGGGACACUGGGCUGGGACCAGAAUCUUAUUUUUUUUUAAAACUCUCAGUGUAACUUCUUUUUCUGACAUUUCAUUUUUUUUAAAUAGUGUAUUUUUU | 9.85
AAAUCGUGUGUGUCCAAUAUUGAAAGUACUUUAUCUGCACUCCAGUAUGUAAGCAGCAUAGUAGUUUCUUUAGAGAAUAGGUCAGCCAUUGUAAAGUACAAUGCAAGCUUAGUCACUCCA | 1.95
GGCUGCUGGUGACUGUCGGGAGCCGUCUGGAGUUCCCGCCGGAGCGCGGCCAGACUAAUUAUAGAAAAUGCCAAGUAGGAAGUUUGUUGAGGGUGAAGUGGUCAGAGGCCGAUGGCCUGG | 2.04
CAGCCUCAGAGCCCAGACUUCCUGGAUAUUACCAACCCCAAAGCCGUAUUAGAAAAUGCAUUGAGAAACUUCGCCUGUCUGACGACUGGAGAUGUGAUUGCUAUCAACUAUAAUGAAAAG | 0.56
UUCAAAGAAAAGGGCAGCUGUGUCAUUUCAUAAGUAACUCUGGGGGAUAAGUGGAAGGUUCUUUUGUUUAAUUUUCCCCCAAAUGAAGCCAAAGUGUGUGUUGAAGAACUGAGAAAAAAU | 0.195

Block 2 — target: CCND1, cyclin fold, Cln2 fusion (human); technique: yeast growth competition, sequencing; matrix: yeast; notes: strong parent motif; relative to: not given; direction: higher = stronger binding
Parent: SCAPER docking peptide (human); SNARRSLNFGGST; partner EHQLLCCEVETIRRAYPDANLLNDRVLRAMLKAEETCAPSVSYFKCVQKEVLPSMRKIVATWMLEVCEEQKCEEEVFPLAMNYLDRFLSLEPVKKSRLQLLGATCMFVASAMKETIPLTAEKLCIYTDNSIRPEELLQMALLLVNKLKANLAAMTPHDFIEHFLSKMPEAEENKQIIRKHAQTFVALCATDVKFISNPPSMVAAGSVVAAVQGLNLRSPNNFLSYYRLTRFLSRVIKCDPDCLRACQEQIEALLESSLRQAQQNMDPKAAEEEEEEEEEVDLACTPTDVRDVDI
Substitution | normalised enrichment score
S1H | 0.153
R4W | 0.386
S12T | 0.951
N2C | 0.802
G11K | 0.863
G11M | 0.294
G11A | 1.01
L7H | 0.33
R5D | 0.486
F9G | -0.257
N2Q | 1.03
S12Y | 0.844
R4K | 0.745
F9S | 0.107
S1L | 0.409
T13Y | 0.653
S1K | 0.469
G11P | 0.724
S6A | 2.59
S6F | 1.33
N8D | 1.54
S1V | 0.624
G11V | 1.41
N8Q | 0.369
A3D | 0.0477

Block 3 — technique: DHFR PCA, deep sequencing; matrix: yeast; added: (+)-ABA 0.032 µM; relative to: wild-type fitted maximum; direction: higher = stronger binding
Target: ABI1, truncated, D143A, DHFR fusion (Arabidopsis thaliana)
Notes: methotrexate growth selection, single substitutions
Parent: PYL1, truncated, DHFR fusion (Arabidopsis thaliana); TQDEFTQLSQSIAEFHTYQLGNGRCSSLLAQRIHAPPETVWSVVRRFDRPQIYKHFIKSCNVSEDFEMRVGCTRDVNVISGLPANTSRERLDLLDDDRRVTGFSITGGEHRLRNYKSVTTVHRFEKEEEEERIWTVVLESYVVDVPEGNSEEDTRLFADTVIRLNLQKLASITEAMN; partner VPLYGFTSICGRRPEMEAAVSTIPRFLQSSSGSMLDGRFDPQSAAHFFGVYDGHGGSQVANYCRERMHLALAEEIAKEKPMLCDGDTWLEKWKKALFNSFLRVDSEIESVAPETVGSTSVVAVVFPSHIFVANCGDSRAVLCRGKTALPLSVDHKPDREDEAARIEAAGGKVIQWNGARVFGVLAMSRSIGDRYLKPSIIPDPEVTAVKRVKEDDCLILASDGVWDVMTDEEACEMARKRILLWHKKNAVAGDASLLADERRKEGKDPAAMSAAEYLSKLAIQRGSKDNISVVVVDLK
Substitution | relative binding score
A175C | 7.63%
L138F | 13.4%
F56N | -4.52%
F157Y | 38%
D159T | -2.33%
E109G | 3.88%
R155I | 4.03%
N61Y | 32.1%
D97Y | 9.84%
S150H | 22.8%
L20A | 38.5%
D75G | -3.85%
K116H | 8.9%
E4M | 22.2%

Block 4 — target: CRIPT, C-terminal peptide; technique: DHFR complementation, deep sequencing; matrix: yeast; relative to: wild type; direction: higher = weaker binding
Notes: single substitutions, model-inferred values
Parent: ERBIN, PDZ domain 1 (human); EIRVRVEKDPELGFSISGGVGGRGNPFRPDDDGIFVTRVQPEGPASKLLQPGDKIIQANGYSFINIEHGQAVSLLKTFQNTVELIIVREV; partner TKNYKQTSV
Substitution | binding free energy change [kcal/mol]
L12S | 1.31
L12N | 0.962
F35T | 0.815
V39K | 1.08
V39Q | 0.556
N25M | 1.12
E83W | 0.16
G22P | 0.164
I85P | 0.792
G24R | 1.35
K47R | 0.0408
F27L | 0.805
P51M | 0.241
D9T | 0.279
G43H | 1.47

Block 5 — technique: RNAcompete; molecule type: RNA; matrix: in vitro; concentration: 20 nM; notes: 7-mer, probes averaged, single round; relative to: mean of 7-mers; direction: higher = stronger binding
Target: PABPC1L2, full length, GST fusion (mouse, UniProt A0ABA7IW68)
Residues (chain): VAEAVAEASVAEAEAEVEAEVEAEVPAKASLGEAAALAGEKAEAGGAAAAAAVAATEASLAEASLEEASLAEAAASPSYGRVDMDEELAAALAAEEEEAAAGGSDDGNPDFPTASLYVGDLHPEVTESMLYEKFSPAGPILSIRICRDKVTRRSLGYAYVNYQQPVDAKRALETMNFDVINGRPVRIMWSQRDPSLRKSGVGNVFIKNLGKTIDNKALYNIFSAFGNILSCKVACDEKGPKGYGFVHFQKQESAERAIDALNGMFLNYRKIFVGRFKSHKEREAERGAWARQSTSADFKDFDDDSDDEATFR
Oligonucleotide | 7-mer Z-score
CCCCCAC | -0.481
GUUCGUA | -0.398
ACCAGAU | -0.108
CCUAGCA | -0.184
UUGCCAU | -0.233
CAGCUAU | -0.137
GACCAAG | -0.00652
AGGCGUC | -0.186
ACACGCG | -0.0699
ACACCUU | -0.266
GGAUCGU | -0.209
GAAUGGC | -0.00652
AUGCCAA | 0.0787
AUAGGUC | -0.11
GAAGCCG | -0.19
AGUUGCG | -0.0989
UCUAUGG | -0.148
CGUAGUA | -0.32
CCAUAUG | -0.213
AUGAGGU | -0.0101

Excerpt of the above (block 2):
Substitution | normalised enrichment score
R4W | 0.386
S12T | 0.951
N2C | 0.802
G11K | 0.863
G11M | 0.294
G11A | 1.01
L7H | 0.33
R5D | 0.486
